Results from different studies.
Every numbered part comes from another study and shows a few of its results, in no order. Changes are numbered by the printed parent chain.

Block 1 — method: RNA Bind-n-Seq; molecule type: RNA; matrix: in vitro; tested at: not given; notes: RNA with constant flanks, ends assumed; reference: input RNA pool; reading: higher = stronger binding; measurement: bound/input enrichment
Target: RING finger protein unkempt homolog, zinc fingers 1-6, GST-SBP tag (UNK, Homo sapiens, UniProt Q9C0B0, residues 30-357)
UniProt Q9C0B0, sequence (30-357, looked up): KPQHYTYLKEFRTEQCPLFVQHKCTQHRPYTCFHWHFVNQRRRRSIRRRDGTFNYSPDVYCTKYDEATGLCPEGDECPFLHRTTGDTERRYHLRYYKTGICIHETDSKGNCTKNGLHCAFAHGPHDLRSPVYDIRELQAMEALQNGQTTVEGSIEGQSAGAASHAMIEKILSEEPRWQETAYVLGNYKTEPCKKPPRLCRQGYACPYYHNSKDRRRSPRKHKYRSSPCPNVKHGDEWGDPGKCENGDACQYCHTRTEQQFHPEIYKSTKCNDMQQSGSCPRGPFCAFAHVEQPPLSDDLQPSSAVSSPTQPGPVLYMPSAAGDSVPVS
All sequences stand within: GGGAGUUCUACAGUCCGACGAUC … CAACAGAGGAUUGAGCAUCA
GUAGAAUUUAUUUUGUCUUUUAUUGAUCACAUUGCUGGAGAUGAGGAUCAUACGGACGGAGUGGCCGCCUGUGCUGCUGGUCUGAUAGGGGACUUGUGUACAGCCUUCGGGAAGGAUGUA: 1.62 ratio
AAUGUGGCAUUCAUGAGCUACUUUUUACAGGGCAAGGUUGAUGCCUGCCUAGAGCUCUUAAUCCGAACUGGACGGCUGCCAGAAGCUGCCUUCUUGGCCCGAACUUACUUACCCAGUCAG: 0.157 ratio
GUAACGCUGCUGCCCGGAGCCGCGUUGGAGGCCUCCCUUCCCAUUAAGUGCCUCUUUGCACCGCACCGGCCCCACCCCCACGCUCACUGGUACUACUACAGAGCAGCGCGCCAUGGCGGG: 0.315 ratio
UAUUUCAUGAAGCCACUGCAUGGUAAAUAUGCAACUUCACGUUUUUCUGUUUUUAACACAUUCCGACCUUGGUUAAAAAUUCCUUUUGUUUAUGAUAAUUGUUUUUGCCAUUUGUAUAUU: 0.169 ratio
AAGUGCUUAUGAUUCAAUUAAUCUACAUUUUGGUAAUCAAUUAUAAAAUACUUUUUAAAUCCGUAUUGGCUAUUUUUUUUUUUUACCCUGGGAAGAUGCUGUCUGCUCACAGGAGUCCCA: 1.71 ratio
CUUUGUAUAUAUUUUUUUGUGUACAUGCACACAUCUCGAAAUCCAUUUCCGUGUUUAAUGUCCGUUGUUUAUGUGUUAGUAUUCCUGUGUCUACUGUUUUGUUGUUGUUAAUAUGGGUAA: 0.707 ratio
UUUAAAACAAAAAAUAUAUUAAUUUACAUAUAAGGGGAUUUAUGAUAAUUGUAUUAUAUCCCGUUGAGUUUCAUAUUCUUAAUUAGCCUGUAAAUAAAAAUGACAUAUUCUACAUUAAAG: 2.34 ratio
UGUGAUCAUGCCAAUCCACAGCUUUCAAAUCCAAGCCCUUUUCAGACACUUGGGCUGGACUCCGUUUUGGAAUGUGUUGCUAGGUACCAGCCUAAGCAGCGUUCAAUGUUUACCUUUGUA: 0.171 ratio

Block 2 — method: DHFR PCA, deep sequencing; matrix: yeast; together with: (+)-ABA 710 µM; reference: wild-type fitted maximum; reading: higher = stronger binding; measurement: relative binding score
Target: ABI1, truncated, D143A, DHFR fusion (Arabidopsis thaliana)
Notes: methotrexate growth selection, single substitutions
Starting sequence: PYL1, truncated, DHFR fusion (Arabidopsis thaliana); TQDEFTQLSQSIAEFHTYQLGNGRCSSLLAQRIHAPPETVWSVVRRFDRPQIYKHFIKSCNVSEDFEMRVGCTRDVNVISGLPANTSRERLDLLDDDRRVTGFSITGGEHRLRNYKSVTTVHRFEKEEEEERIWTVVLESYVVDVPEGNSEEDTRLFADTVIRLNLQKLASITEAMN
A158Q: 15.5%
L93Q: 110%
V62S: 86.7%
L82D: -3.62%
T119E: 4.39%
I79D: 79.7%
E14K: 90.3%
L138E: 6.5%
V137H: -19.5%
D97S: 116%
M176G: 104%
L93R: 105%
Q51L: 74%
I172D: 44.1%
I133W: 102%
R98G: 97%
Q19H: 103%
V118W: 41.9%
L138G: 2.95%
S9I: 94.7%
S140V: 6.45%
E174Y: 88.5%
V121C: 102%
E38P: 87.9%
L169S: -1.45%

Block 3 — method: RNA Bind-n-Seq; molecule type: RNA; matrix: in vitro; tested at: 365 nM; reference: no-protein control; reading: higher = stronger binding; measurement: RBNS enrichment (R)
Target: RNA binding protein fox-1 homolog 2, RRM domain, GST-SBP tag (RBFOX2, Homo sapiens, UniProt O43251-10, residues 100-194)
Notes: natural RNA segment, single round, ends assumed
All sequences stand within: GGGAGUUCUACAGUCCGACGAUC … UGGAAUUCUCGGGUGCCAA
Target sequence (chain): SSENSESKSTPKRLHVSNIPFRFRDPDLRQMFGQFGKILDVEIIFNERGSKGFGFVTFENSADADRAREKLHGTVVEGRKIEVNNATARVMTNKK
CAUCUCAGACUUCCUAACACAGCCUGUGUGGAAGGCAGAACAAAGAAUGCAUGCCCAGUCAGAAAUCUGUUCUAUUCUGCUCCAGGAAAAUCGGAAACCUGUGAGUCAGA: 13.1
CAAGAUGAGUUUUGAGCGUUGUAUUCCAAAGGCCUCAUCUGGAGCCUCGGGAAAGUCUGGUCCCACAUCUGCCCGCCCUUCCAGCCCUUCCCCAGCCCCUCCUCUUGUUU: 0.875
CCAACCAUAAAAUUAUCUUAUUGCUACUUCAUAACUGUAAUUUUGCUACUGUUAUAAAUCAUAAUGUAAAUCUCUGUGUUUUCUGGUAGUUUUAGGUAACCCCUGUGAGA: 0.468
GCCCUGAAGUGGGGGUGCGGGAAUGGGGAGGCUUCCCCUUUAGUGACUCAUGUCCCAGGUCUAAGAAAUCUAAAGUGGACUGAGGCAGGCUCCCUUGUGUGUCCCUAUAC: 0.407
GAAAGGGGUUUAUGUAUAAAUAUAUUUUAUGCCUUUUUAUUACAAGUCUUGUUACUCAAUGACUUUUGUCAUGGCAGUUUGUUCUACUUUAGACUGUAAAUUAUGCAUUA: 0.964
GGGGGUAGUGACAGAAUCCCUGGAAGAGUCUUGAGCCACUUCCUGCUGGGGUUUCUAGUAAAGUCUGUGAGCCUCUCCACCAGUCCCUGUAAAUGCUAAUGCAGCCCAGC: 0.468
CUUGUUUUUCUGAUGGCAAAUGGGAACUGUGACAAAGUGAAGUCCUUGUAAAGCGGUGAUACAACUUGUCAAAUAUUUAAUAAAGAAUUACGGAAGCUGGAACAUUUCCU: 0.268
CCUAAGAAAAAAAGUCCGCGAGUAUUAAAUAUUUAGAUCAAUGUUUAUAAAAUGAUUACUUUGUAUAUCUCAUUAUUCCUAUUUUGGAAUAAAAACUGACCUUCUUUAAU: 0.709

Block 4 — method: universal PBM; molecule type: double-stranded DNA, one strand shown; matrix: in vitro; tested at: 600 nM; reading: higher = stronger binding; measurement: E-score
Target: Sal-like protein 4, full length isoform A (SALL4, Homo sapiens, UniProt Q9UJQ4, residues 1-1053)
UniProt Q9UJQ4, sequence (whole entry, looked up): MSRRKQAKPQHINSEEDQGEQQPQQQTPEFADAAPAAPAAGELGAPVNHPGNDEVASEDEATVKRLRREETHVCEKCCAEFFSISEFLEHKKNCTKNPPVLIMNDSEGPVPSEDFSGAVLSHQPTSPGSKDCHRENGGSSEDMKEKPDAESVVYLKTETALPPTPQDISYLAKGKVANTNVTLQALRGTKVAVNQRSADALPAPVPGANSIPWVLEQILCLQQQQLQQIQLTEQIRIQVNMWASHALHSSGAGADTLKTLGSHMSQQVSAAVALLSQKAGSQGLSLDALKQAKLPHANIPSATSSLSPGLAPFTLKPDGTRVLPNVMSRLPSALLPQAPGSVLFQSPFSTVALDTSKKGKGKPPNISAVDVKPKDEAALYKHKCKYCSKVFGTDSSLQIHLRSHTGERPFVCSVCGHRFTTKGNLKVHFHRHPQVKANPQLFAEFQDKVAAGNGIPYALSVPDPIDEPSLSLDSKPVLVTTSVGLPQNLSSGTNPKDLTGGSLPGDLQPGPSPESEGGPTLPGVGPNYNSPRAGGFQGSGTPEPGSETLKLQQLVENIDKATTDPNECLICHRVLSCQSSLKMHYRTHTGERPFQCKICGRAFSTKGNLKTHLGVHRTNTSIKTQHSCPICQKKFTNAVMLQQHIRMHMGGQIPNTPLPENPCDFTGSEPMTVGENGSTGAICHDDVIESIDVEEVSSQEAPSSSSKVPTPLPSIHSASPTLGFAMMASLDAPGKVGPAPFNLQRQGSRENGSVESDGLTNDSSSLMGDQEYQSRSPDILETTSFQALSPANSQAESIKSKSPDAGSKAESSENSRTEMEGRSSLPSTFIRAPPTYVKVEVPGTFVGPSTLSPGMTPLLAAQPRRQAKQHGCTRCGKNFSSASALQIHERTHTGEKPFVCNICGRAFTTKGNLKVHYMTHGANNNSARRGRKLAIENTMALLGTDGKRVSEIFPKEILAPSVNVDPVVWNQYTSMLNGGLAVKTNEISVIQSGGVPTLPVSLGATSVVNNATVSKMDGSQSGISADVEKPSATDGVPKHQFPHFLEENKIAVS
Notes: 8-mer, flanks averaged, mean of replicates
CAGAGTCG: -0.226
AGACATAC: 0.196
GACGCTCC: -0.176
GTTATTGA: 0.294
ACCGATCA: 0.0766
ATCGAGGC: -0.0594
ACACAGGT: -0.142
CCTCGAAC: -0.197
AGTTAGGC: -0.074
AGCTCCCT: -0.148
ACTTGTCT: 0.0878
TACGATGA: 0.164
CCGGAAAC: -0.149
CTAAACAG: 0.103
CGTGCACG: -0.054
AGCGCTGC: -0.231
CGGAACAA: 0.043
